Published values of several laboratories.
Numbers after ± are the reported error.

SMILES	cell line	assay	test system	setting	CC50
Cc1cc(C(NC(=O)C2CC2c2ccc(C)c(C)c2)C(N)=O)cc(C(F)(F)F)c1 (mixture of isomers)	BHK-21	cell growth or viability, MTT		24 h	> 100 µM
C=C1C(=O)O[C@@H]2C[C@H](C)[C@@H]3C[C@H](OC(C)=O)[C@H](OC(C)=O)[C@@]3(C)C[C@H]12	mouse Splenocyte	cell growth or viability, flow cytometry	BALB/c	48 h	241 µM
Cc1ccc(C(C)C)cc1.F[P-](F)(F)(F)(F)F.[Cl][Ru-]1[NH2+]CC[NH2+]1	Jurkat	PI flow cytometry		20 h	129 µM
O=C(CCN(CCC(=O)N[C@@H](Cc1c[nH]c2ccccc12)C(=O)O)C(=O)CCN(CCC(=O)N(CCC(=O)N[C@@H](Cc1c[nH]c2ccccc12)C(=O)O)CCC(=O)N[C@@H](Cc1c[nH]c2ccccc12)C(=O)O)C(=O)[C@H]1C[C@@H](C(=O)N(CCC(=O)N(CCC(=O)N[C@@H](Cc2c[nH]c3ccccc23)C(=O)O)CCC(=O)N[C@@H](Cc2c[nH]c3ccccc23)C(=O)O)CCC(=O)N(CCC(=O)N[C@@H](Cc2c[nH]c3ccccc23)C(=O)O)CCC(=O)N[C@@H](Cc2c[nH]c3ccccc23)C(=O)O)C[C@@H](C(=O)N(CCC(=O)N(CCC(=O)N[C@@H](Cc2c[nH]c3ccccc23)C(=O)O)CCC(=O)N[C@@H](Cc2c[nH]c3ccccc23)C(=O)O)CCC(=O)N(CCC(=O)N[C@@H](Cc2c[nH]c3ccccc23)C(=O)O)CCC(=O)N[C@@H](Cc2c[nH]c3ccccc23)C(=O)O)C1)N[C@@H](Cc1c[nH]c2ccccc12)C(=O)O	RD				> 27 µM
CC(C)C[C@H](NC(=O)OCc1ccccc1)C(=O)N[C@@H](C[C@@H]1CCNC1=O)C(O)S(=O)(=O)O (some centres unmarked)	RD			3 (unit not given), 33 °C, with: MgCl2 30 mM	> 50 µM
C=C(C)[C@@H]1CC[C@]2(CO)CC[C@]3(C)[C@H](CC[C@@H]4[C@@]5(C)CCCNC(C)(C)[C@@H]5CC[C@]43C)[C@@H]12	C-33 A	cell viability, CellTiter-Glo			11.9 µM
CC(C)C[C@@H]1NC(=O)[C@@H](Cc2c[nH]c3ccccc23)NC(=O)[C@H](CCCNC(=N)N)NC(=O)[C@@H](CCC(=O)O)NC(=O)[C@H](CCC(N)=O)NC(=O)[C@@H](CCC(=O)O)NC(=O)[C@H](CCCNC(=N)N)NC(=O)[C@@H](Cc2c[nH]c3ccccc23)NC1=O	SK-OV-3	cytotoxicity			> 40 µM
Cc1cc(C)cc([C@H]2C[C@@H]2C(=O)N[C@H](C(=O)NCc2ccccc2)c2ccc(C)c(C)c2)c1	BHK-21	cell growth or viability, MTT		24 h	> 100 µM
COc1ccccc1CNC(=O)CSc1c[nH]c2ccccc12	HEK293T	cell viability, CCK-8		24 h	75.5 µM
O=C(CCN(CCC(=O)NC(Cc1c[nH]c2ccccc12)C(=O)O)C(=O)C1CC(C(=O)N(CCC(=O)NC(Cc2c[nH]c3ccccc23)C(=O)O)CCC(=O)NC(Cc2c[nH]c3ccccc23)C(=O)O)CC(C(=O)N(CCC(=O)NC(Cc2c[nH]c3ccccc23)C(=O)O)CCC(=O)NC(Cc2c[nH]c3ccccc23)C(=O)O)C1)NC(Cc1c[nH]c2ccccc12)C(=O)O (centres unmarked)	RD			3 (unit not given)	> 85 µM
CC[C@H](C)[C@@H]1NC(=O)[C@H](CCCCN)NC(=O)[C@H](CCCCN)NC(=O)[C@H](Cc2ccc(O)cc2)NC(=O)[C@H](CC(C)C)NC(=O)[C@@H]2CCCN2C(=O)[C@H](C)NC(=O)CNC(=O)CNC(=O)[C@H](CO)NC(=O)CNC(=O)CNC(=O)[C@H](CO)NC(=O)[C@H](CCC(=O)O)NC(=O)[C@H](CC(C)C)NC(=O)[C@H](CC(C)C)NC(=O)[C@H](CCCCN)NC(=O)[C@H](CCCCN)NC(=O)[C@H]([C@@H](C)CC)NC(=O)[C@H]([C@@H](C)CC)NC(=O)[C@H](CCCCN)NC(=O)[C@H](CCCCN)NC(=O)[C@H](Cc2ccc(O)cc2)NC(=O)[C@H](CC(C)C)NC(=O)[C@@H]2CCCN2C(=O)CNC(=O)CNC(=O)CSC[C@@H](C(N)=O)NC(=O)[C@H](CC(C)C)NC(=O)[C@H](CCCCN)NC(=O)[C@H](CCCCN)NC(=O)[C@H]([C@@H](C)CC)NC1=O	MM96L	cell viability, resazurin		24 h	3.5 ± 0.2 µM
C1=[N+]2CCCC[N+]3=Cc4ccc5[n]4[Au-]23[n]2c1ccc2-c1nc2ccccc2nc1-5.F[P-](F)(F)(F)(F)F	NCI60 non-small cell lung lines				97 µM
CC[C@H](C)[C@H](NC(=O)[C@H](CCCNC(=N)N)NC(=O)[C@H](Cc1ccccc1)NC(=O)[C@H](C)NC(=O)[C@@H](NC(=O)[C@H](Cc1ccccc1)NC(=O)[C@H](CC(C)C)NC(=O)[C@H](CC(C)C)NC(=O)[C@H](CCC(N)=O)NC(=O)[C@H](CCC(N)=O)NC(=O)[C@H](CC(C)C)NC(C)=O)[C@@H](C)CC)C(=O)NCC(=O)N[C@@H](CCCNC(=N)N)C(=O)N[C@@H](CCCNC(=N)N)C(=O)N[C@@H](CCCNC(=N)N)C(=O)N[C@@H](CCCNC(=N)N)C(=O)N[C@@H](CCCNC(=N)N)C(=O)N[C@@H](CCCNC(=N)N)C(=O)N[C@@H](CCCNC(=N)N)C(=O)N[C@@H](CCCNC(=N)N)C(N)=O	MT4 Luc	luciferase signal decrease			> 5 µM
COc1ccc(-c2cnc3[nH]cc(C#Cc4cccnc4)c3c2)cc1OC	Calu-3, infected	alamarBlue		24 h post infection	> 20 µM
C=C(C)[C@@H]1CC[C@]2(C(=O)NC(CO)Cc3ccccc3)CC[C@]3(C)[C@H](CC[C@@H]4[C@@]5(C)CCCNC(C)(C)[C@@H]5CC[C@]43C)[C@@H]12 (some centres unmarked)	primary HFF	cell viability, CellTiter-Glo		HSV-1 assay setting	3.22 µM
O=C(CCN(CCC(=O)NC(Cc1c[nH]c2ccccc12)C(=O)O)C(=O)CCC(CCC(=O)N(CCC(=O)NC(Cc1c[nH]c2ccccc12)C(=O)O)CCC(=O)NC(Cc1c[nH]c2ccccc12)C(=O)O)(CCC(=O)N(CCC(=O)NC(Cc1c[nH]c2ccccc12)C(=O)O)CCC(=O)NC(Cc1c[nH]c2ccccc12)C(=O)O)[N+](=O)[O-])NC(Cc1c[nH]c2ccccc12)C(=O)O (centres unmarked)	RD			3 (unit not given)	> 82 µM
N=C(N)NCCC[C@H]1NC(=O)[C@H](CCCN)NC(=O)[C@@H](Cc2c[nH]cn2)NC(=O)[C@H](Cc2ccc(O)cc2)NC(=O)[C@@H](Cc2ccc(O)cc2)NC(=O)[C@H](Cc2ccccc2)NC(=O)[C@@H](Cc2c[nH]c3ccccc23)NC(=O)[C@H](CO)NC1=O	SK-OV-3	cytotoxicity			6.9 µM
CC(=O)CCC1C(=O)NC(C(C)C)C(=O)NC(Cc2cc(O)cc(F)c2)C(=O)N2CCCC(N2)C(=O)OC(C(C)=CC=CC(=O)N2CCCCO2)CC=CC=CC(O)C(C)C1O (centres unmarked)	Huh-5-2	MTS		3 days	> 100 µM
CC[C@H](C)[C@H](NC(=O)[C@H](CCCNC(=N)N)NC(=O)[C@H](Cc1ccccc1)NC(=O)[C@H](Cc1cnc[nH]1)NC(=O)[C@H](C)NC(=O)[C@H](Cc1ccccc1)NC(=O)[C@H](CC(C)C)NC(=O)[C@H](CC(C)C)NC(=O)[C@H](CCC(N)=O)NC(=O)[C@H](CCC(N)=O)NC(=O)[C@H](CC(C)C)NC(C)=O)C(=O)NCC(=O)N[C@@H](CCCNC(=N)N)C(=O)N[C@@H](CCCNC(=N)N)C(=O)N[C@@H](CCCNC(=N)N)C(=O)N[C@@H](CCCNC(=N)N)C(=O)N[C@@H](CCCNC(=N)N)C(=O)N[C@@H](CCCNC(=N)N)C(=O)N[C@@H](CCCNC(=N)N)C(=O)N[C@@H](CCCNC(=N)N)C(N)=O	MT4 Luc	luciferase signal decrease			> 5 µM
O=C(CSc1[nH]c2ccccc2c1SCC(=O)Nc1ccc(Cl)c(Cl)c1)Nc1ccc(Cl)c(Cl)c1	HEK293T	cell viability, CCK-8		24 h	96.2 µM
C=C1C(=O)O[C@@H]2C[C@H](C)[C@@H]3C[C@H](O[Si](C)(C)C)[C@H](O[Si](C)(C)C)[C@@]3(C)C[C@H]12	mouse Splenocyte	cell growth or viability, flow cytometry	BALB/c	48 h	66.4 µM
CCC(C)SSc1ncc[nH]1 (centres unmarked)	RD			3 (unit not given), 37 °C	7.1 µM
CC[C@H](C)[C@@H]1NC(=O)[C@H](CCCCN)NC(=O)[C@H](CCCCN)NC(=O)[C@H](Cc2ccc(O)cc2)NC(=O)[C@H](CC(C)C)NC(=O)[C@@H]2CCCN2C(=O)[C@H](C)NC(=O)CNC(=O)CNC(=O)[C@H](CO)NC(=O)CNC(=O)CNC(=O)[C@H](CO)NC(=O)[C@H]([C@@H](C)O)NC(=O)[C@H](CC(C)C)NC(=O)[C@H](CC(C)C)NC(=O)[C@H](C)NC(=O)[C@H](Cc2c[nH]c3ccccc23)NC(=O)[C@H](Cc2ccc(O)cc2)NC(=O)[C@H](Cc2c[nH]cn2)NC(=O)[C@H](CCC(=O)O)NC(=O)[C@H](Cc2ccccc2)NC(=O)[C@H]([C@@H](C)O)NC(=O)[C@H](CC(C)C)NC(=O)[C@@H]2CCCN2C(=O)CNC(=O)CNC(=O)CSC[C@@H](C(N)=O)NC(=O)[C@H](CC(C)C)NC(=O)[C@H](CCCCN)NC(=O)[C@H](CCCCN)NC(=O)[C@H]([C@@H](C)CC)NC1=O	MM96L	cell viability, resazurin		24 h	> 32 µM
O=C(CCN(CCC(=O)N[C@@H](Cc1c[nH]c2ccccc12)C(=O)O)C(=O)CCN(CCC(=O)N(CCC(=O)N[C@@H](Cc1c[nH]c2ccccc12)C(=O)O)CCC(=O)N[C@@H](Cc1c[nH]c2ccccc12)C(=O)O)C(=O)CCC(CCC(=O)N(CCC(=O)N(CCC(=O)N[C@@H](Cc1c[nH]c2ccccc12)C(=O)O)CCC(=O)N[C@@H](Cc1c[nH]c2ccccc12)C(=O)O)CCC(=O)N(CCC(=O)N[C@@H](Cc1c[nH]c2ccccc12)C(=O)O)CCC(=O)N[C@@H](Cc1c[nH]c2ccccc12)C(=O)O)(CCC(=O)N(CCC(=O)N(CCC(=O)N[C@@H](Cc1c[nH]c2ccccc12)C(=O)O)CCC(=O)N[C@@H](Cc1c[nH]c2ccccc12)C(=O)O)CCC(=O)N(CCC(=O)N[C@@H](Cc1c[nH]c2ccccc12)C(=O)O)CCC(=O)N[C@@H](Cc1c[nH]c2ccccc12)C(=O)O)[N+](=O)[O-])N[C@@H](Cc1c[nH]c2ccccc12)C(=O)O	RD				> 26 µM
Cc1cccc(NC(=O)CSc2c[nH]c3ccccc23)c1	HEK293T	cell viability, CCK-8		24 h	93.5 µM
O=C1CC(c2ccccc2)Oc2cc(O[C@@H]3O[C@H](CO)[C@@H](O)[C@H](O)[C@H]3O)ccc21 (some centres unmarked)	Vero E6-GFP	cell viability		72 h, with: CP-100356 2 µM	> 100 µM

A few entries again:
SMILES	cell line	assay	test system	setting	CC50
CC[C@H](C)[C@@H]1NC(=O)[C@H](CCCCN)NC(=O)[C@H](CCCCN)NC(=O)[C@H](Cc2ccc(O)cc2)NC(=O)[C@H](CC(C)C)NC(=O)[C@@H]2CCCN2C(=O)[C@H](C)NC(=O)CNC(=O)CNC(=O)[C@H](CO)NC(=O)CNC(=O)CNC(=O)[C@H](CO)NC(=O)[C@H](CCC(=O)O)NC(=O)[C@H](CC(C)C)NC(=O)[C@H](CC(C)C)NC(=O)[C@H](CCCCN)NC(=O)[C@H](CCCCN)NC(=O)[C@H]([C@@H](C)CC)NC(=O)[C@H]([C@@H](C)CC)NC(=O)[C@H](CCCCN)NC(=O)[C@H](CCCCN)NC(=O)[C@H](Cc2ccc(O)cc2)NC(=O)[C@H](CC(C)C)NC(=O)[C@@H]2CCCN2C(=O)CNC(=O)CNC(=O)CSC[C@@H](C(N)=O)NC(=O)[C@H](CC(C)C)NC(=O)[C@H](CCCCN)NC(=O)[C@H](CCCCN)NC(=O)[C@H]([C@@H](C)CC)NC1=O	MM96L	cell viability, resazurin		24 h	3.5 ± 0.2 µM
C1=[N+]2CCCC[N+]3=Cc4ccc5[n]4[Au-]23[n]2c1ccc2-c1nc2ccccc2nc1-5.F[P-](F)(F)(F)(F)F	NCI60 non-small cell lung lines				97 µM
